Assay results from different studies.
Numbered parts are unrelated; each lists some results of a single study. “And” joins repeats or separate records; there may be more than shown.
Sequence of UniProt P18089 (whole entry, looked up): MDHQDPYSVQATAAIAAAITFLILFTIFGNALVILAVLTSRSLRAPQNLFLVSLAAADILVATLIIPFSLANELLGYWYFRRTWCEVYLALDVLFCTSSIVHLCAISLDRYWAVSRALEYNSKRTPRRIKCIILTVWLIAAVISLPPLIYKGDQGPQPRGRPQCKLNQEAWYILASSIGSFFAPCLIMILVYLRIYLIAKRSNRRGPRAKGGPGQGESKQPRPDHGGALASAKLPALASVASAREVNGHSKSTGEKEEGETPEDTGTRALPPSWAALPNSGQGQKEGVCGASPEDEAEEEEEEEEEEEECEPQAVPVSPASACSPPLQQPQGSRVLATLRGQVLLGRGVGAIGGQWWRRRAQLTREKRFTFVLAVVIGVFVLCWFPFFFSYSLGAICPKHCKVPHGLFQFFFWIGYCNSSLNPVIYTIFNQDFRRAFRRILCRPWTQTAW

Study 1 — cell line: mouse MPNST tumor cells; technique: high-content immunofluorescence imaging; refers to: nuclear SOX9; tested at: 10 µM; time: 12 h; setting: mean of 2 replicates; relative to: DMSO control; reading: higher = more nuclear SOX9
Compound | nuclear SOX9 intensity
O=C(Nc1cc2cc[nH]c2cn1)c1ccccc1 | 94.8 % of DMSO
CCOC(=O)O[C@]1(C(=O)COC(=O)CC)CC[C@H]2[C@@H]3CCC4=CC(=O)C=C[C@]4(C)[C@H]3[C@@H](O)C[C@@]21C | 72 % of DMSO
O=C(NNS(=O)(=O)c1ccccc1F)c1cc(F)cc(-c2ccccn2)c1 | 77.6 % of DMSO
Cn1ccnc1S | 94.7 % of DMSO
COc1cc(OC)cc(-c2noc(N3CCN(C)C4(CCN(c5ccnc(C)c5)CC4)C3)n2)c1 | 193 % of DMSO and 232 % of DMSO
CCCCCCCCCCCCCCCC[N+](C)(C)CCN(Cc1ccc(OC)cc1)c1ncccn1 | 140 % of DMSO
O=C(O)COc1ccc(/C=C2\SC(=O)NC2=O)cc1 | 96.3 % of DMSO

Study 2 — cell line: A-375; tested at: 100 µM; time: 36 h
SMILES | viability [%]
NS(=O)(=O)c1cc2c(cc1Cl)NC(C(Cl)Cl)NS2(=O)=O (stereo not drawn) | 121
C=C1CC[C@@H]2[C@](C)(CO)[C@H](O)CC[C@@]2(C)[C@@H]1C/C=C1/C(=O)OC[C@H]1O | 4.15
C[C@H](O)C(=O)Nc1c(I)c(C(=O)NC(CO)CO)c(I)c(C(=O)NC(CO)CO)c1I | 124
CN(C)CCC(c1ccccc1)c1ccccn1 (stereo not drawn) | 107
CN(C)[C@@H]1C(O)=C(C(N)=O)C(=O)[C@@]2(O)C(O)=C3C(=O)c4c(O)ccc(Cl)c4[C@@H](O)[C@H]3C[C@@H]12 | 103
CN/C(=N/CCSCc1nc[nH]c1C)NC#N | 110
Cc1ccc(O)cc1 | 109
O=c1[nH]cnc2c1ncn2[C@H]1CC[C@@H](CO)O1 | 104

Study 3 — technique: Incucyte 3D growth; tested at: 30 µM; reading: higher = more growth
Structure (SMILES): CC(C)(C(=O)O)[C@H](NC(=O)Cc1cccc(I)c1)c1ccc2oc(=O)[nH]c2c1
cell line | time | spheroid area
KP-4 | 174 h | 3.46e+07 a.u. and 2.42e+07 a.u. and 2.41e+07 a.u. and 3.09e+07 a.u. and 2.5e+07 a.u. and 1.77e+07 a.u.
A375 | 306.52 h | 1.73e+08 a.u. and 1.95e+08 a.u. and 1.76e+08 a.u. and 1.79e+08 a.u. and 2e+08 a.u. and 1.72e+08 a.u.
A375 | 48 h | 2.92e+07 a.u. and 2.76e+07 a.u. and 1.3e+07 a.u. and 2.38e+07 a.u. and 1.06e+07 a.u. and 1.29e+07 a.u.
IPC-298 | 72 h | 3.08e+07 a.u. and 2.43e+07 a.u. and 3.27e+07 a.u. and 3.47e+07 a.u. and 2.68e+07 a.u. and 2.86e+07 a.u.
A375 | 72 h | 5.05e+07 a.u. and 4.02e+07 a.u. and 4.58e+07 a.u. and 4.89e+07 a.u. and 3.76e+07 a.u. and 2.06e+07 a.u.
IPC-298 | 228 h | 3.48e+07 a.u. and 2.77e+07 a.u. and 2.62e+07 a.u. and 2.58e+07 a.u. and 3.96e+07 a.u. and 3.07e+07 a.u.
A375 | 222.52 h | 1.72e+08 a.u. and 1.64e+08 a.u. and 1.5e+08 a.u. and 1.6e+08 a.u. and 1.54e+08 a.u. and 1.8e+08 a.u.

Further values, each from its own experiment
Structure (SMILES) | tested on | effect on | technique | tested at | relative to | quantity | result
COCCc1ccc(-c2c(C)nc3c(N4CCOCC4)ccnn23)cn1 | ADRA2B (Homo sapiens, UniProt P18089) | binding | radioligand binding | – | – | Ki | > 10 µM
O=C(O)c1ccc(-c2coc3ncc(-c4ccccc4)cc23)cc1Cl | sample BA colorectal tumour organoid | – | – | 1 µM | DMSO | viability | 119%
